Results from different studies.
Every numbered part comes from another study and shows a few of its results, in no order.

Set 1
Target: Ras GTPase-activating protein-binding protein 1, full length (G3BP1, Homo sapiens, UniProt Q13283)
Chain of UniProt Q13283 (whole entry, looked up): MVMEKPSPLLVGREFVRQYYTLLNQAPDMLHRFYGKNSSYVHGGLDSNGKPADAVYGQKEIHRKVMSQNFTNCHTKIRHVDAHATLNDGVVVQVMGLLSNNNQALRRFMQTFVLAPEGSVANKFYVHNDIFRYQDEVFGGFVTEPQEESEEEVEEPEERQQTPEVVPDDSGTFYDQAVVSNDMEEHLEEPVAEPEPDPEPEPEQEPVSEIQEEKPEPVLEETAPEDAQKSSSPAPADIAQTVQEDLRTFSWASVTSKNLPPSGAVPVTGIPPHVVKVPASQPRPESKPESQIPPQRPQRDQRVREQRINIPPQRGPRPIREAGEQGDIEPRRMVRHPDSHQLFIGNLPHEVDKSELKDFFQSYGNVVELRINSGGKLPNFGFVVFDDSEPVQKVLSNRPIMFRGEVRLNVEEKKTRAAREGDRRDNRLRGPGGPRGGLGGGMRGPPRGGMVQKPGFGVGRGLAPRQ
Technique: RNA Bind-n-Seq
Form: RNA
Sample: in vitro
Concentration: 200 nM
Setting: whole 134-nt RNA, ends assumed
With: 150 mM KCl
Reference: input library
Direction: higher = stronger binding
Constant ends, left off below: GGGAGUUCUACAGUCCGACGAUC … UGGAAUUCUCGGGUGUCAAGG
Oligonucleotide	log2 enrichment
CACAGUCAACACGCACCCACACAGACACAGAGGGAAGGGGUUGGGAUGGGGACAGGGUGCACAGCAGGGCGGGGUAGGACCCCAGCCCCU	1.69
AGUCCUGUGCUACACAUCGUAUGUACCGAAUCGGGUUUGGGAAAGGGUUUUUUUGGGAAAGUAUUAUGUUACGCCGUUCGGAUCUGCACU	-0.158
UAACUUUAGAGGAGGAUCUGAUGGAUAUGCCAGUGGACGUGGAUUUGGGGAUGGCUAUAAUGGGUAUGGAGGAGGACCUGGAGGUGGCAA	0.332
AAGUCCUGUGCUACACAUCGUAUGUACCGAAUCAAAUUUAAACCCCCAAAUUUAAAAAAGUAUUAUGUUACGCCGUUCGGAUCUGCACUU	-0.289
ACCAUGCAGGUGGGCAUCUUUGGGUAGUGGGGCAAGGGGGGGAUAGGGAGGGGGGUAACACUUUGGGAACAGGUGGUCCCAGGUCGUUUC	1.24
AGUCCUGUGCUACACAUCGUAUGUACCGAAUCGGGAAAGGGUUUUUGGGUUUUUGGGAAAGUAUUAUGUUACGCCGUUCGGAUCUGCACU	-0.392
GUCCUGUGCUACACAUCGUAUGUACCGAAUCGGGGAAAAAGGAAAAAGGGGAAAAAGGGAAAGUAUUAUGUUACGCCGUUCGGAUCUGCA	-0.0899
GUCCUGUGCUACACAUCGUAUGUACCGAAUCAAAUUUAAACCCCCCCAAACCCCCAAAAAAGUAUUAUGUUACGCCGUUCGGAUCUGCAC	-0.18
UCCUGUGCUACACAUCGUAUGUACCGAAUCGGGGAAAAAAAGGGGAAAAAGGGGUGGGGAAAGUAUUAUGUUACGCCGUUCGGAUCUGCA	0.56

Set 2
Target: Eukaryotic initiation factor 4A-I (EIF4A1, Homo sapiens, UniProt P60842, residues 1-406, full length assumed)
Chain of UniProt P60842 (whole entry, looked up): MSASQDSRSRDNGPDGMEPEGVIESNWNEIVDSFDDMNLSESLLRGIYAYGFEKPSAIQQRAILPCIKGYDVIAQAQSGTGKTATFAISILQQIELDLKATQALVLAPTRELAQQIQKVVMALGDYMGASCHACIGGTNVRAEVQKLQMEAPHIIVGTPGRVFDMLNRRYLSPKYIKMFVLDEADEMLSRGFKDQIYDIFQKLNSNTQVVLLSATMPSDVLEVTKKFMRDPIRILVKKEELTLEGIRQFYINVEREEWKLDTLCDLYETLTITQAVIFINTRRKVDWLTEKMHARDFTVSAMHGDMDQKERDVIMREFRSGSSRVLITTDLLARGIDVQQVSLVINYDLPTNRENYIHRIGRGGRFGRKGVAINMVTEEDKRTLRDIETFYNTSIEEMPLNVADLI
Technique: RNA Bind-n-Seq
Form: RNA
Sample: in vitro
Concentration: 15 pmol
Setting: 4-mer, random 30-nt RNA, single round
With: 3 µM DMDA-PatA, 2 mM AMP-PNP
Reference: input library
Direction: higher = stronger binding
Oligonucleotide	4-mer enrichment [fold]
AAGU	1.34
AUGG	1.35
CGUG	1.1
GACU	0.87
GGCC	0.651
GUCA	0.533
CUGC	0.611
CUUG	0.849
UAGA	1.27
AAUC	0.762
UUGG	1.31
GGCA	0.97
CGAU	1.03
AACG	0.711
GUCU	1.01
CUCA	0.437
CGCU	0.879
CUCC	0.448
UUCG	1.27
AUAC	0.774
CAUG	0.985
UGUA	1.83
GUAU	1.5
UCAG	0.507

Set 3
Target: Interferon regulatory factor 7, full length, phosphomimetic (IRF7, Homo sapiens, UniProt Q92985, residues 1-503, S101K/S471D/S472D/S475D/S476D/S477D/S483D/S484D/S487D)
Technique: protein-binding microarray
Form: double-stranded DNA, one strand shown
Sample: in vitro
Concentration: 250 nM
Setting: 60-bp whole probe
With: salmon DNA 0.4 mg/ml
Reference: random background probes
Direction: higher = stronger binding
Constant ends, left off below: GCCTAGCAC … GTCTTGATTCGCTTGACGCTGCTG
Target sequence (chain): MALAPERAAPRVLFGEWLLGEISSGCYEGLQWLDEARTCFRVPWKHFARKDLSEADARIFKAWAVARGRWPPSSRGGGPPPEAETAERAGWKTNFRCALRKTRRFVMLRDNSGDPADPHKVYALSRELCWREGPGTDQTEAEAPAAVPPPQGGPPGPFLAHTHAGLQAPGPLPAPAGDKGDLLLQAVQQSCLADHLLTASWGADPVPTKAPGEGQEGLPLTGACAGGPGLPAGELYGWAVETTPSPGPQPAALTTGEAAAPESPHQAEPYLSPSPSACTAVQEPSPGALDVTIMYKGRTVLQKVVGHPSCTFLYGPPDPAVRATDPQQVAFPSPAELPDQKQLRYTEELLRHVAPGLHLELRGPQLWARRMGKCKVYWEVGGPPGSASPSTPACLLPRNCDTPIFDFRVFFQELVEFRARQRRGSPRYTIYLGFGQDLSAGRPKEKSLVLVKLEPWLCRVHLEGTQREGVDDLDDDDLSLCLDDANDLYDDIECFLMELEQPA
Oligonucleotide	log fluorescence [z-score]
TCTGTTTTTGCTTTCCTTTAGTGCTAG	2.37
GACGGACTGGACAGTGGGGACGTGCTA	-0.821
TTATTTTTTTTATTTATAAAGTGCTAG	1.21
TTAGGACTGGGGCATCGGTTAGTGCTA	-0.472
TTAGGAGTGGGGTTTCGGTTAGTGCTA	4.75
TTCGATTTCGGGTATCGATTAGTGCTA	2.15
GTAGGTATCGGTCTCGGTTAGTGCTAG	1.51
TCAATATTATATCTGTGACTGTGCTAG	0.11
TTAGGTCTCCTTCTCGTTTAGTGCTAG	0.698
TTAGGTTTCGTCTATCGGTTAGTGCTA	4.65
TTAGCTATCAGTTTCGATTAGTGCTAG	7.57
TTTGAACTGAGACTGGATTAGTGCTAG	-0.155
TTAGGACTGGACTATCCGTTAGTGCTA	-0.252
AACGATGCAAGTGCCCTTCGGTGCTAG	-0.522
TTAGATTCCAGTATCGATTAGTGCTAG	2.01
GACGATCTCAGTTACGAGACGTGCTAG	0.0335
GACAGACTGGGGACTGGGGACGTGCTA	-0.429
GACGGTATCGGTATCGGGGCGTGCTAG	1.03
GTCGTCACTGCCATAATGCGGTGCTAG	-0.494

Set 4
Target: RING finger protein unkempt homolog, zinc fingers 1-6, GST-SBP tag (UNK, Homo sapiens, UniProt Q9C0B0, residues 30-357)
Chain of UniProt Q9C0B0 (30-357, looked up): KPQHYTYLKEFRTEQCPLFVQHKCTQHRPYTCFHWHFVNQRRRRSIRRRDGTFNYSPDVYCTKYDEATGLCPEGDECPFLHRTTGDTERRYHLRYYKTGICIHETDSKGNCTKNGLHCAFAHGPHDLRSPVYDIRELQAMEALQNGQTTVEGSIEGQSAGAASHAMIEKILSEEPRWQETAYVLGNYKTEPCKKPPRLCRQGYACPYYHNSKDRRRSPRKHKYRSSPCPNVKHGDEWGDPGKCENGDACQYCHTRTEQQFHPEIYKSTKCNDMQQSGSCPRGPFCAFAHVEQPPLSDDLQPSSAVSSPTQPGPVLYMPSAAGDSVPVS
Technique: RNA Bind-n-Seq
Form: RNA
Sample: in vitro
Concentration: not given
Setting: RNA with constant flanks, ends assumed
Reference: input RNA pool
Direction: higher = stronger binding
Constant ends, left off below: GGGAGUUCUACAGUCCGACGAUC … CAACAGAGGAUUGAGCAUCA
Oligonucleotide	bound/input enrichment [ratio]
UUAGAAUGUGAAUUCUAUCUGUUAGAACUAAUGGAUUGUUGCUUGAUAGUGUAUCAUCCUUACCGACCUUUGCUCCAGUAUGUGCAGGACAUGGGCCAAGAAGACAUGUUGCUUCCCCUU	0.173
AAAAUCUCUGAUGACCUGAUGCAGAAGAUCAGCACUCAGAACCGCCGAGCCCUGGACCUCGCCGCUGCCAAGUGUUACUAUUAUCACGCCCGGGUCUAUGAGUUCCUGGACAAGCUGGAU	0.142
UUGUACGCUUUAUCCAAAGAAAUAUAUGUGAUUAGCGCAGAGACCUUCACUGCCCUAUCAGUACCCGGUGUAAUGGUCUAUGGAAUUAAAAAAUAUGGUCCCUUUGUUGCAGACUUUGCU	0.704
CCAUUAAAACAGCAAAUAAAACCCAGUGAAGCAUUUUUUAAAGACUAACAGCUUAAUUAAUUCCGAUAUACUUUAAGAGAAAAACUAUUUUAUCCUUCAUGUGAAUAAUGAAUAACAGUA	2.42
GGACAGACGUGUGGAAAACAUAAAUGUCCAAGAAACACUUUUGUCUUAAUGGUCUGUGGAAACCGGUUCACUCCUUGAAAUUAAGGUCUAAAAGGUGUUUUGUGGUUUCUGUAUUUCUUC	0.182
CACUUCUUAAGAGAGAAGAGAGAGGAAGUCAGGGGACACACAGGCUGAGUGGCCGUGUGGCCGUUCUCCUGUCUGUGUAUAAAUAUUUACAUGUUCUGUGUGGUCUGAAUGCAGAAGCUC	0.184
GGCUUUGAGCUUCCUCAGGGGCCUCUGGGAACAUCCUUCAAAGGAAAAUAUGGGUGUGCCGACUACUGGGUGAAGGCUUUUCUUGACCGCCCGAGCCAGCCAACUCAAGAGACAAAGAAA	0.272
GCUUUUAAUGGAGUUAUGUUUGGAGACAGGCCACUGAAAAUAAAUCACUCCAACAAUGCAACCGUAAAACCCCCUGAGAUGACACCUCAGGCUGCAGCUAAGGAGUUAGAAGAAGUAAUG	0.867

Set 5
Target: Histone acetyltransferase KAT6A, winged helix 2, GST fusion (KAT6A, Homo sapiens, UniProt Q92794, residues 85-181)
Technique: protein binding microarray
Form: double-stranded DNA, one strand shown
Sample: in vitro
Concentration: not given
Setting: 8-mer, flanks averaged, mean of 2 arrays, mostly near background
Reference: not given
Direction: higher = stronger binding
Residues (chain): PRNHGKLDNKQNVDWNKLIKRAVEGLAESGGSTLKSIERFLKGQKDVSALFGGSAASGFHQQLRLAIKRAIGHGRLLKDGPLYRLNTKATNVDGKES
Oligonucleotide	E-score
ATATCGAC	-0.0821
ATAACGCC	0.0104
CCAACGCG	0.129
AGTGAATG	0.0111
TACGAGCA	-0.167
TACAGGAA	-0.0368
CTCGCCTA	0.0648
ACTCTAAA	-0.0512
AAGGTGAA	0.0326
GATCCGAC	0.0293
TGCTTCCA	0.025
ACTCCTTA	-0.317
CAGAACTG	0.237
ATTTTTAC	-0.00773
AGTGGTAT	-0.0569
AAGAGATC	-0.205

Some of these lines once more (set 2):
Oligonucleotide	4-mer enrichment [fold]
GACU	0.87
GGCC	0.651
GUCA	0.533
CUGC	0.611
CUUG	0.849
UAGA	1.27
AAUC	0.762
UUGG	1.31
GGCA	0.97
CGAU	1.03
AACG	0.711
GUCU	1.01
CUCA	0.437
